{"data": "Measurements collected from several papers", "note": "Protocols differ between the studies behind these lines. Values joined by “and” are separate records of one study, mostly repeats; a detail may differ. ± gives the spread as reported."}
{"SMILES": "COc1cc2c(cc1OC)-c1cc3ccc(OC)c(OC)c3c[n+]1CC2", "system": "rat, STZ-induced diabetic, liver", "setting": "oral, 12 mg/kg, day 28", "quantity": "SOD activity", "result": "7.76 ± 0.63 U/mg protein"}
{"SMILES": "CC(C)(O)c1ccc(N2Cc3c(ccnc3-c3ccc(F)cc3OCC(F)(F)F)C2=O)cc1", "assay": "refers to: glucosylceramide", "system": "mouse, cerebral cortex", "setting": "oral, 10 mg/kg", "quantity": "time of maximal reduction", "result": "16 h"}
{"SMILES": "CCOC(=O)C(Cc1cccc(O)c1)OC(=O)C=Cc1ccc(O)c(O)c1C=Cc1ccc(O)c(O)c1 (centres unmarked)", "system": "C57 wild-type mice, isoproterenol-induced myocardial ischemia, serum", "setting": "oral, 10 mg/kg pretreatment for 7 days, together with: isoproterenol 3 mg/kg", "how to read": "baseline: normal group", "quantity": "serum AST level", "result": "115 ± 10%"}
{"SMILES": "Cc1cc(C)c(-c2ccc(NC(=O)[C@H](Cc3ccc(C(=O)NCCS(=O)(=O)O)cc3)c3ccc(-c4ccc(C(C)(C)C)cc4)cc3)cc2)c(C)c1", "assay": "glucagon challenge test", "system": "mouse, HFD-induced obese", "setting": "oral, 50 mg/kg, together with: glucagon 15 µg/kg ip", "quantity": "glucose AUC", "result": "decreased"}
{"SMILES": "COc1ccc2c(c1)c(CC(=O)OCC(=O)OC(C)(C)C)c(C)n2C(=O)c1ccc(Cl)cc1", "assay": "hot plate test", "system": "BALB/c mice", "setting": "75 mg/kg, 90 min", "quantity": "latency of nociceptive response", "result": "14.3 ± 0.75 s"}
{"SMILES": "CCCCCCCCCC(=O)OCc1cn(-c2ccc(Cl)cc2)nn1", "assay": "prothrombin time", "system": "human plasma", "setting": "10 µM", "quantity": "clotting time", "result": "15.4 ± 0.7 s"}
{"SMILES": "Cc1cc2c(cc1C1(c3ncc(C(=O)O)cn3)CC1)C(C)(C)CCC2(C)C", "assay": "RNA sequencing, refers to: Inmt mRNA", "system": "rat, brain", "setting": "dose not given, 24 h, single dose", "how to read": "baseline: vehicle", "quantity": "log2 fold change", "result": -0.36}
{"SMILES": "COc1cc(/C=C/C(O)=C/C(=O)/C=C/c2ccc(O[C@@H]3O[C@H](C(=O)O)[C@@H](O)[C@H](O)[C@H]3O)c(OC)c2)ccc1O", "assay": "immunohistochemistry", "system": "HCT-116 (KRAS mutant, TP53 null), mouse xenograft, tumour", "setting": "ip, 90 mg/kg, day 21", "how to read": "baseline: control mice", "quantity": "NF-κB staining", "result": "decreased"}
{"SMILES": "C[C@H]1CN(C(=O)c2cn(-c3ccnc(N)n3)c3cc(C#CC4(O)CCCCC4)ccc23)CCN1", "system": "B16-BL6, mice, lung metastasis model", "setting": "intravenous, 25 mg/kg daily", "quantity": "mice with lung metastases", "result": "44.2%"}
{"SMILES": "CN1Cc2c(Cl)cc(Cl)cc2C(c2ccc(S(=O)(=O)NCCOCCOCCOCCNC(=O)C(O)C(O)C(=O)NCCOCCOCCOCCNS(=O)(=O)c3ccc(C4CN(C)Cc5c(Cl)cc(Cl)cc54)cc3)cc2)C1 (centres unmarked)", "system": "Sprague Dawley rats", "setting": "oral, 3 mg/kg, 16 h", "quantity": "fecal water content", "result": "61 % by weight"}
{"SMILES": "Cc1ccc(S(=O)(=O)N(CCc2nnc(S)o2)c2ccc(Cl)cc2)cc1", "system": "rat", "setting": "75 mg/kg, 3 h, together with: carrageenan", "quantity": "paw edema inhibition", "result": "79.8%"}
{"SMILES": "CC(=O)N/C(N)=N/C(=N\\S(=O)(=O)c1ccc(C(F)(F)F)cc1)N1C[C@H](c2ccccc2)C(c2ccc(Cl)cc2)=N1", "assay": "intraperitoneal insulin sensitivity test", "system": "β-arrestin 2 knockout mouse, diet-induced obese", "setting": "3 mg/kg/day", "quantity": "insulin sensitivity", "result": "no effect"}
{"SMILES": "O=S(=O)(c1ccccc1)N(CCc1nnc(S)o1)c1ccc(Cl)cc1", "system": "rat", "setting": "200 mg/kg, 3 h, together with: carrageenan", "quantity": "paw edema inhibition", "result": "47.4%"}
{"SMILES": "CC(=O)c1cnc(N)nc1N1CC[C@H]1c1nn2ccc(Cl)c2c(=O)n1-c1ccccc1", "assay": "B cell activation, inhibitor, refers to: CD86", "system": "Wistar rat, blood", "setting": "oral, 3 mg/kg twice at 0 and 8 h, 24 h, together with: anti-IgD", "quantity": "inhibition", "result": "90% and > 90%"}
{"SMILES": "CCCCCCCCCCCCCCCC(=O)N[C@@H](CCC(=O)NCCCC[C@H](NC(=O)[C@H](CC(=O)O)NC(=O)[C@H](CO)NC(=O)[C@@H](NC(=O)[C@H](Cc1ccccc1)NC(=O)[C@@H](NC(=O)CNC(=O)[C@H](CCC(N)=O)NC(=O)[C@H](CO)NC(=O)[C@@H](N)Cc1c[nH]cn1)[C@@H](C)O)[C@@H](C)O)C(=O)N[C@@H](CO)C(=O)N[C@@H](CCC(=O)O)C(=O)N[C@@H](Cc1ccc(O)cc1)C(=O)N[C@@H](CC(C)C)C(=O)N[C@@H](CC(=O)O)C(=O)N[C@@H](CO)C(=O)N[C@@H](CCC(=O)O)C(=O)N[C@@H](CCCNC(=N)N)C(=O)N[C@@H](C)C(=O)N[C@@H](CCCNC(=N)N)C(=O)N[C@@H](CC(=O)O)C(=O)N[C@@H](Cc1ccccc1)C(=O)N[C@H](C(=O)N[C@@H](C)C(=O)N[C@@H](Cc1c[nH]c2ccccc12)C(=O)N[C@@H](CC(C)C)C(=O)N[C@@H](CCC(=O)O)C(=O)N[C@@H](C)C(=O)NCC(=O)NCC(=O)O)C(C)C)C(=O)O", "assay": "intraperitoneal glucose tolerance test", "system": "diet-induced obese mouse", "setting": "subcutaneous, 10 nmol/kg, 1 h before glucose, together with: glucose 1.5 g/kg intraperitoneal", "quantity": "glucose AUC", "result": "785 mmol·min/L"}
{"SMILES": "N=C(N)NCCC[C@@H]1NC(=O)[C@H](CCCNC(=N)N)NC(=O)[C@H](CCCNC(=N)N)NC(=O)[C@H](Cc2ccc3ccccc3c2)NC(=O)[C@H](Cc2c[nH]c3ccccc23)NC(=O)[C@H](Cc2ccc3ccccc3c2)NC(=O)[C@H](CCCNC(=N)N)NC1=O", "assay": "membrane leakage", "system": "bacterial mimic liposomes", "setting": "50 µg/mL, 100% leakage", "quantity": "time to dye leakage", "result": "50 min"}
{"SMILES": "CC(C)C1=C(O)C(=O)C2=C(C=C[C@H]3C(C)(C)CCC[C@]23C)C1=O", "assay": "oxygen radical absorbance capacity, fluorometric", "quantity": "ORAC", "result": "0.291 Trolox equivalents"}
{"SMILES": "O=C(Nc1ccccc1)c1ccc(Nc2nnc(-c3ccc(O)cc3)c3ccccc23)cc1", "system": "mice, plasma", "setting": "intraperitoneal, 1 mg/kg", "quantity": "plasma anandamide level", "result": "increased"}
{"SMILES": "COc1ccc(C2CC(c3ccc(C)cc3)=Nc3ccccc3S2)cc1 (centres unmarked)", "system": "Wistar rat, STZ-induced diabetes", "setting": "oral, 20 mg/kg once daily, day 14", "quantity": "blood glucose", "result": "161 ± 4.12 mg/dL"}
{"SMILES": "Nc1nc2cnc(C(=O)N3CCOC[C@@H]3c3ccc(C(F)(F)F)cc3)cc2c2c1COC2", "system": "human, serum", "setting": "oral, 800 mg once daily", "quantity": "time to SDMA decline", "result": "≤ 1 weeks"}
{"SMILES": "CC[C@H](C)[C@H](NC(C)=O)C(=O)N[C@H]1CSSC[C@@H](C(=O)N(C)[C@H](C(N)=O)[C@@H](C)CC)NC(=O)[C@H](CCCNC(=N)N)NC(=O)[C@H](Cc2c[nH]cn2)NC(=O)[C@H](C)NC(=O)CN(C)C(=O)[C@H](Cc2c[nH]c3ccccc23)NC(=O)[C@H](CC(=O)O)NC(=O)[C@H](CCC(N)=O)NC(=O)[C@H](Cc2cn(C)c3ccccc23)NC(=O)[C@H](C(C)C)NC1=O", "assay": "complement classical pathway, ELISA C3 deposition", "system": "human serum", "how to read": "baseline: compstatin", "quantity": "potency relative to compstatin", "result": "871 fold"}
{"SMILES": "O=C([O-])CN1CCN(CC(=O)[O-])CCN(CC(=O)NC[C@H]2CC[C@H](C(=O)N[C@H](Cc3cnc4ccccc4c3)C(=O)NCCCC[C@H](NC(=O)N[C@@H](CCC(=O)O)C(=O)O)C(=O)O)CC2)CCN(CC(=O)[O-])CC1.[64Cu+2]", "assay": "refers to: prostate cancer", "system": "patients suspected prostate cancer, PSMA PET/CT-targeted biopsy cores", "quantity": "detection rate", "result": "88.9%"}
{"SMILES": "CCOC(=O)CCC(NC(=O)C(NC(=O)c1c(C)nn(-c2cc[nH]c(=O)c2)c1C)C(C)C)C(=O)OCC (centres unmarked)", "assay": "single-cell RNA sequencing", "system": "intratumoral CD45+ immune cells, C57BL/6 mice, B16-F10 tumour", "setting": "dose not given, together with: anti-PD-L1", "how to read": "baseline: enantiomer", "quantity": "Ifng and Gzmb expression", "result": "increased"}
{"SMILES": "CCCOC(=O)Cc1c(C)n(C(=O)c2ccc(Cl)cc2)c2ccc(OC)cc12", "assay": "hot plate test", "system": "BALB/c mice", "setting": "50 mg/kg, 120 min", "quantity": "latency of nociceptive response", "result": "14.7 ± 1.44 s"}
{"SMILES": "CC[C@H]1[C@@H](O)[C@@H]2[C@H](CC[C@]3(C)[C@@H]([C@H](C)CCOS(=O)(=O)[O-])CC[C@@H]23)[C@@]2(C)CC[C@@H](O)C[C@@H]12.[Na+]", "assay": "histology", "system": "ob/ob NASH mouse model, liver", "setting": "oral, 10 mg/kg once daily, before treatment, baseline of 8 week study", "how to read": "direction not given", "quantity": "NAFLD activity score", "result": "6.4 ± 0.2"}
{"SMILES": "CCC1C=CC2CCN(C(=O)C3CCC4C=CC5(CCCN5C(=O)C(Cc5ccccc5Cl)NC(C)=O)C(=O)N43)C2C(=O)N1CC(=O)OC (centres unmarked)", "system": "mouse, orthotopic PANC-1 xenograft", "setting": "subcutaneous, 100 mg/kg twice daily, 48 d", "quantity": "primary tumour size", "result": "no effect"}
{"SMILES": "Cc1ccc([C@@H]2O[C@H](CO)[C@@H](O)[C@H](O)[C@H]2O)cc1Cc1ccc(-c2ccc(F)cc2)s1", "system": "rabbit, STZ-nicotinamide diabetes, serum", "setting": "28 days", "quantity": "blood glucose", "result": "180 ± 4.03 mg/dL"}
{"SMILES": "Cc1c(C(=O)Nc2ccn(C)n2)ncn1Cc1cccc(C(F)(F)F)c1", "system": "human WT αS transgenic mouse, cortex", "setting": "dose not given", "how to read": "baseline: placebo", "quantity": "cytosolic to membrane αS ratio", "result": "no effect"}
{"SMILES": "CC(C)[C@H](NC(=O)CN)C(=O)N[C@@H](CCCCN)C(=O)NCC(=O)N[C@@H](CC(=O)O)C(=O)N[C@@H](CCCCN)C(=O)NCC(=O)N[C@@H](CC(N)=O)C(=O)N1CCC[C@H]1C(=O)NCC(=O)N[C@@H](Cc1c[nH]c2ccccc12)C(=O)N1CCC[C@H]1C(=O)NCC(=O)N[C@@H](C)C(=O)N1CCC[C@H]1C(=O)O", "system": "K1735 M4 melanoma, mouse", "setting": "200 µg/mL coating, 40 min, peptide-coated plates", "how to read": "baseline: input cells", "quantity": "maximal spreading cells", "result": "~70%"}
{"SMILES": "Cc1cc(Nc2cc3ncccc3c(N[C@@H]3C[C@H]4CC[C@@H](C3)N4CCC#N)n2)n[nH]1", "system": "moderate-severe ulcerative colitis patients", "setting": "80 mg, day 28", "how to read": "baseline: patients", "quantity": "endoscopic response", "result": "20%"}
{"SMILES": "Cc1cnc(Nc2cc(C)c(C)c(C)c2)nc1Nc1ccc2oc(=O)[nH]c2c1", "assay": "refers to: phospho-STAT5a", "system": "rat, OVA asthma model, whole lung homogenate", "setting": "intratracheal, dose not given, 2 h after OVA challenge", "how to read": "baseline: OVA vehicle", "quantity": "STAT5a phosphorylation", "result": "inhibited"}
{"SMILES": "OCc1cnn(-c2ccccc2)n1", "assay": "plasma recalcification time", "system": "human plasma", "setting": "10 µM", "quantity": "clotting time", "result": "281 ± 12 s"}
{"note": "Excerpt of the above:"}
{"SMILES": "CC(C)(O)c1ccc(N2Cc3c(ccnc3-c3ccc(F)cc3OCC(F)(F)F)C2=O)cc1", "assay": "refers to: glucosylceramide", "system": "mouse, cerebral cortex", "setting": "oral, 10 mg/kg", "quantity": "time of maximal reduction", "result": "16 h"}
{"SMILES": "OCc1cnn(-c2ccccc2)n1", "assay": "plasma recalcification time", "system": "human plasma", "setting": "10 µM", "quantity": "clotting time", "result": "281 ± 12 s"}
{"SMILES": "Cc1cc(Nc2cc3ncccc3c(N[C@@H]3C[C@H]4CC[C@@H](C3)N4CCC#N)n2)n[nH]1", "system": "moderate-severe ulcerative colitis patients", "setting": "80 mg, day 28", "how to read": "baseline: patients", "quantity": "endoscopic response", "result": "20%"}
{"SMILES": "CN1Cc2c(Cl)cc(Cl)cc2C(c2ccc(S(=O)(=O)NCCOCCOCCOCCNC(=O)C(O)C(O)C(=O)NCCOCCOCCOCCNS(=O)(=O)c3ccc(C4CN(C)Cc5c(Cl)cc(Cl)cc54)cc3)cc2)C1 (centres unmarked)", "system": "Sprague Dawley rats", "setting": "oral, 3 mg/kg, 16 h", "quantity": "fecal water content", "result": "61 % by weight"}
{"SMILES": "CCOC(=O)C(Cc1cccc(O)c1)OC(=O)C=Cc1ccc(O)c(O)c1C=Cc1ccc(O)c(O)c1 (centres unmarked)", "system": "C57 wild-type mice, isoproterenol-induced myocardial ischemia, serum", "setting": "oral, 10 mg/kg pretreatment for 7 days, together with: isoproterenol 3 mg/kg", "how to read": "baseline: normal group", "quantity": "serum AST level", "result": "115 ± 10%"}
